Results from different studies.
Each numbered part is a random draw from the data of one study; scales do not carry over between parts. Positions count from the first letter of the parent shown.

Sample 1
Target: CCNA2, cyclin fold, Cln2 fusion (human)
Method: yeast growth competition, sequencing
Sample: yeast
Setting: strong parent motif
Baseline: not given
Reading: higher = stronger binding
Starting sequence: WEE1 docking peptide (human); HKTFRKLRLFDTP
Variant	normalised enrichment score
HKTFRKLRLFDTS [P13S]	1.28
HKTHRKLRLFDTP [F4H]	1.78
HWTFRKLRLFDTP [K2W]	1.88
HKTFRKLLLFDTP [R8L]	1.39
HKMFRKLRLFDTP [T3M]	1.5
HLTFRKLRLFDTP [K2L]	0.953
HKTFRKLRLFDVP [T12V]	1.65
IKTFRKLRLFDTP [H1I]	2.1
HKTFRKLNLFDTP [R8N]	0.809
HKTFRKKRLFDTP [L7K]	1.31
YKTFRKLRLFDTP [H1Y]	1.24
RKTFRKLRLFDTP [H1R]	0.514
HVTFRKLRLFDTP [K2V]	0.534
HKTFRKLRLFDTV [P13V]	2.1
HKTCRKLRLFDTP [F4C]	1.09
HKTFRKERLFDTP [L7E]	1.24
HSTFRKLRLFDTP [K2S]	1.26
CKTFRKLRLFDTP [H1C]	1.7

Sample 2
Target: Histone acetyltransferase KAT6A, winged helix 2, GST fusion (KAT6A, Homo sapiens, UniProt Q92794, residues 85-181)
Method: protein binding microarray
Molecule type: double-stranded DNA, one strand shown
Sample: in vitro
Tested at: not given
Setting: 8-mer, flanks averaged, mean of 2 arrays, mostly near background
Baseline: not given
Reading: higher = stronger binding
Residues (chain): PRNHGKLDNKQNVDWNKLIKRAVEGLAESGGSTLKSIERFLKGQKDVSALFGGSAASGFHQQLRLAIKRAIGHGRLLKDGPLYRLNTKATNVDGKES
Oligonucleotide	E-score
CACTTCGA	0.113
ACAGTCGG	0.062
AATATACC	-0.203
GGTACCAA	-0.0809
GTGGATGA	0.0641
AAGACTAT	-0.166
GAAAAGAA	-0.0247
CCTAGAGA	-0.125
CACTCTGA	-0.0251
ACCATTCC	-0.0676
ACATAGGA	-0.24
GCGATTCC	0.0875
AACCAAAA	0.121
ATTCACAA	-0.0155
TAGCTATA	-0.189
CGGGTTCC	0.21
CATCCCCG	0.0965

Sample 3
Target: ABI1, truncated, D143A, DHFR fusion (Arabidopsis thaliana)
Method: DHFR PCA, deep sequencing
Sample: yeast
Setting: methotrexate growth selection, single substitutions
Together with: (+)-ABA 710 µM
Baseline: wild-type fitted maximum
Reading: higher = stronger binding
Starting sequence: PYL1, truncated, DHFR fusion (Arabidopsis thaliana); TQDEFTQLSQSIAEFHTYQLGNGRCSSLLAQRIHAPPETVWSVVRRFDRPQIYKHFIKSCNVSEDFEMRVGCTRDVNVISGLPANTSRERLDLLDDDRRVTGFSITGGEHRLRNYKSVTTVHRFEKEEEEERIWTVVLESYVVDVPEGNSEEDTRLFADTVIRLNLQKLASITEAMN; partner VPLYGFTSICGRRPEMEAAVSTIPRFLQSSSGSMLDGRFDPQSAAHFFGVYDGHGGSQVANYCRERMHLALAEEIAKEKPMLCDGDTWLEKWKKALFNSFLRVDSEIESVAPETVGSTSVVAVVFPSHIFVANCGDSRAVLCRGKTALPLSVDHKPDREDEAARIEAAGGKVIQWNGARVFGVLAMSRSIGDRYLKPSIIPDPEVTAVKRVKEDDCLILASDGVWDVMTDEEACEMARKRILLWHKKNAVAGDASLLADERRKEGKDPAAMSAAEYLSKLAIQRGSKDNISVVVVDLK
Variant	relative binding score [%]
Y18S	94.6
H16Y	-12.6
L29F	75.5
K126T	112
F66Q	98.5
H16C	21.3
E67F	99.2
V136E	84.3
E67W	96.6
E139S	96.7
R74Y	-28.8
I12Q	90.7
S87G	40.8
L93N	81.1
V70C	97.2
D3V	95.4

Sample 4
Target: ATP-dependent RNA helicase DDX3X, helicase core (DDX3X, Homo sapiens, UniProt O00571, residues 132-607)
Chain of UniProt O00571 (132-607, looked up): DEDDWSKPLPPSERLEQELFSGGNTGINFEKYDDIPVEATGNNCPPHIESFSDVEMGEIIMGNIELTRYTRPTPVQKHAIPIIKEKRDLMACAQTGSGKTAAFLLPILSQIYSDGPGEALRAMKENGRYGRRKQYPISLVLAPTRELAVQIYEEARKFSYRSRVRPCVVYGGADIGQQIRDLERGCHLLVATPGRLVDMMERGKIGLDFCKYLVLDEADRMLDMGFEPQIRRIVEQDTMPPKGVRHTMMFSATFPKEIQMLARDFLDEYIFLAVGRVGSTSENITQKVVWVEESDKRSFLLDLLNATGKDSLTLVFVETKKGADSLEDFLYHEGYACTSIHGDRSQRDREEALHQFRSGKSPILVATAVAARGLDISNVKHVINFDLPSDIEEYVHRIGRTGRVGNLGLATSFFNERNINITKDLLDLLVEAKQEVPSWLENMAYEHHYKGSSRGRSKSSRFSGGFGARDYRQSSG
Method: RNA Bind-n-Seq
Molecule type: RNA
Sample: in vitro
Tested at: not given
Setting: 4-mer, random 30-nt RNA, single round
Together with: RocA, ADP, phosphate
Baseline: input library
Reading: higher = stronger binding
Oligonucleotide	4-mer enrichment [fold]
CGCG	0.848
AAGA	1.47
CGGC	0.729
UUCU	0.755
CCGG	0.767
GAGA	2.33
AUGC	0.698
UAAC	0.74
AACU	0.728
CCAA	0.769
UAUU	0.949
CGUU	0.843
GCUG	0.866
UCCC	0.933
AGCA	0.954
CCAC	0.772
UGGA	1.27
CCGA	0.934

Sample 5
Target: XBP1, bZIP domain (human)
Method: DHFR protein complementation
Sample: yeast
Setting: single substitutions, most at no-binding floor
Baseline: wild-type JUN-FOS pair
Reading: higher = stronger binding
Starting sequence: JUN, bZIP domain (human); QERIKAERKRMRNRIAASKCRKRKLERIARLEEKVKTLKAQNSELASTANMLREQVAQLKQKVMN; partner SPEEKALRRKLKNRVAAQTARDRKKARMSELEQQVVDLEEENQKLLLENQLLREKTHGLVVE
Variant	binding fitness
E32L	-1.21 natural log
K34C	-1.15 natural log
K39P	-1.51 natural log
M51D	-0.77 natural log
V35H	-1.46 natural log
A57Q	-0.792 natural log
T48N	-0.833 natural log
R30M	-0.276 natural log
R53I	-1.64 natural log
L52S	-1.36 natural log
A29F	-1.32 natural log

Sample 6
Target: Fragile X messenger ribonucleoprotein 1, C-terminal low-complexity region (Fmr1, Mus musculus, UniProt P35922)
Method: RNA Bind-n-Seq
Molecule type: RNA
Sample: in vitro
Tested at: 200 nM
Setting: whole 134-nt RNA, ends assumed
Together with: 150 mM LiCl
Baseline: input library
Reading: higher = stronger binding
All molecules: 7-deaza-guanosine replaces G
All sequences stand within: GGGAGUUCUACAGUCCGACGAUC … UGGAAUUCUCGGGUGUCAAGG
Oligonucleotide	log2 enrichment
UGGGAGGUGGAUUUUGUUUAUGUUUUUAGCUCAUUUCCAGGGGUGGGAAUUUUUUUUUAAUAUGUGUCAUGAAUAAAGUUGUUUUUGAAA	-0.175
CCUCAAGUCCUGUGCUACACAUCGUAUGUACCGAAUCGGAAGGAAGGGAAGGGAAAGUAUUAUGUUACGCCGUUCGGAUCUGCACUUCCA	-0.974
UGGCCCUGGUGGCAUGCGGGGAGGAAGAGGUGGCCUCAUGGAUCGUGGUGGUCCCGGUGGAAUGUUCAGAUGUGGCCGUGGUGGAGACAG	-0.574
AAGUCCUGUGCUACACAUCGUAUGUACCGAAUCGGAAAAGGGAAAAGGGAAAAGGGGAAAGUAUUAUGUUACGCCGUUCGGAUCUGCACU	0.287
CUCAAGUCCUGUGCUACACAUCGUAUGUACCGAAUCGGUUUGGUGGAAAAAGGAAAGUAUUAUGUUACGCCGUUCGGAUCUGCACUUCCA	-0.152
UAACUUUAGAGGAGGAUCUGAUGGAUAUGGCAGUGGACGUGGAUUUGGGGAUGGCUAUAAUGGUUAUGGAGGAGGACCUGGAGGUGGCAA	0.113
CAAGUCCUGUGCUACACAUCGUAUGUACCGAAUCGGUUUUUGGAAAAAAAGGUGGAAAGUAUUAUGUUACGCCGUUCGGAUCUGCACUUC	-1.76
CAAGUCCUGUGCUACACAUCGUAUGUACCGAAUCGGGAAAGGAAAGGGGAAAGGGGAAAGUAUUAUGUUACGCCGUUCGGAUCUGCACUU	-0.645

Repeated from above (sample 1):
Variant	normalised enrichment score
HVTFRKLRLFDTP [K2V]	0.534
RKTFRKLRLFDTP [H1R]	0.514
HKTFRKLRLFDVP [T12V]	1.65
IKTFRKLRLFDTP [H1I]	2.1
CKTFRKLRLFDTP [H1C]	1.7
HWTFRKLRLFDTP [K2W]	1.88
HKTCRKLRLFDTP [F4C]	1.09
HKTFRKLNLFDTP [R8N]	0.809
HKTFRKLRLFDTS [P13S]	1.28
HKTHRKLRLFDTP [F4H]	1.78
HLTFRKLRLFDTP [K2L]	0.953
YKTFRKLRLFDTP [H1Y]	1.24
